Measurements pooled from the literature.
Protocols differ between the studies behind these lines. ± gives the spread as reported.

| SMILES | cell line | test | conditions | CC50 [µM] |
| --- | --- | --- | --- | --- |
| CC(C)[C@H](NC(=O)c1cc(Cl)ccc1O)C(=O)Nc1ccc(F)c(F)c1 | A549 |  |  | > 10 |
| OC(c1cc(C(F)(F)F)nc2c(C(F)(F)F)cccc12)C1CCCCN1 (stereo not shown) | Vero E6 uninfected | cell viability, CellTiter-Glo | 72 h | 8.78 |
| CC[C@H](C)[C@H](NC(=O)[C@H](CCCCN)NC(=O)[C@H](CCCCN)NC(=O)[C@H](Cc1ccc(O)cc1)NC(=O)[C@H](CC(C)C)NC(=O)[C@@H]1CCCN1C(=O)[C@H](C)NC(=O)CNC(=O)CNC(=O)[C@H](CO)NC(=O)CNC(=O)CNC(=O)[C@H](CO)NC(=O)[C@@H](NC(=O)[C@H](CC(C)C)NC(=O)[C@H](CC(C)C)NC(=O)[C@H](C)NC(=O)[C@H](Cc1c[nH]c2ccccc12)NC(=O)[C@H](Cc1ccc(O)cc1)NC(=O)[C@H](Cc1c[nH]cn1)NC(=O)[C@H](CCC(=O)O)NC(=O)[C@H](Cc1ccccc1)NC(=O)[C@@H](NC(=O)[C@H](CC(C)C)NC(=O)[C@@H]1CCCN1C(=O)[C@H](C)NC(=O)[C@H](CCC(N)=O)NC(=O)[C@@H](N)CC(C)C)[C@@H](C)O)[C@@H](C)O)C(=O)N[C@H](C(=O)N[C@@H](CCCCN)C(=O)N[C@@H](CCCCN)C(=O)N[C@@H](CC(C)C)C(=O)N[C@@H](CC(C)C)C(=O)N[C@@H](CCC(=O)O)C(=O)N[C@@H](CO)C(N)=O)[C@@H](C)CC | K562 | resazurin | 24 h | 16.4 ± 3.3 |
| CC(C)[C@H](NC(=O)c1cc(Cl)ccc1O)C(=O)Nc1cc(C(F)(F)F)cc(C(F)(F)F)c1 | A549 |  |  | 7.14 |
| OC(c1cc(C(F)(F)F)nc2c(C(F)(F)F)cccc12)C1CCCCN1 (stereo not shown) | Vero E6, HeLa, HEK293T, Huh7.5 | nuclei count | 16 h, mean of four cell lines | 18.4 ± 2.08 |
| CCN(CC)CCN1c2ccccc2Sc2ccc3ccccc3c21 | HepG2 | cell viability | 24 h, 37 °C | 50.8 |
| CN(C(=O)[C@H](Cc1ccccc1)NC(=O)Cc1ccc2ccccc2c1)c1ccc(Cl)cc1 | TZM-GFP | XTT | 72 h | < 50 |
| CCC(CC)COC(=O)[C@H](C)N[P@](=O)(OC[C@H]1O[C@@](C#N)(c2ccc3c(N)ncnn23)[C@H](O)[C@@H]1O)Oc1ccccc1 | Huh-7 | CPE | 7 days | 15.2 |
| CN(C)CC/C=C1/c2ccccc2Sc2ccc(Cl)cc21 | human cells |  | concentration not given, 2 days | > 20 |
| O=C(NC(Cc1ccccc1)C(=O)Nc1ccc([N+](=O)[O-])cc1Cl)c1cc(Cl)ccc1O (stereo not shown) | A549 |  |  | 6.13 |
| CCCC(=O)OCSc1ccccc1C(=O)NCCC(N)=O | human monocytes/macrophages |  | 7 days | > 1500 |
| C=C1C(=O)O[C@@H]2C[C@@H](C)[C@@H]3C=CC(=O)[C@@]3(C)[C@@H](O)[C@H]12 | BALB/c mouse splenocytes | propidium iodide flow cytometry | 48 h, 10% fetal calf serum | 1.2 |
| CC(C)[C@H](NC(=O)c1cc(Cl)ccc1O)C(=O)Nc1ccc([N+](=O)[O-])cc1Cl | A549 |  |  | 8.32 |
| CC[C@H](C)[C@H](NC(=O)[C@H](CCCCN)NC(=O)[C@H](CCCCN)NC(=O)[C@H](Cc1ccc(O)cc1)NC(=O)[C@H](CC(C)C)NC(=O)[C@@H]1CCCN1C(=O)[C@H](C)NC(=O)CNC(=O)CNC(=O)[C@H](CO)NC(=O)CNC(=O)CNC(=O)[C@H](CO)NC(=O)[C@H](CCC(=O)O)NC(=O)[C@H](CC(C)C)NC(=O)[C@H](CC(C)C)NC(=O)[C@H](CCCCN)NC(=O)[C@H](CCCCN)NC(=O)[C@@H](NC(=O)[C@@H](NC(=O)[C@H](CCCCN)NC(=O)[C@H](CCCCN)NC(=O)[C@H](Cc1ccc(O)cc1)NC(=O)[C@H](CC(C)C)NC(=O)[C@@H]1CCCN1C(=O)[C@H](C)NC(=O)[C@H](CCC(N)=O)NC(=O)[C@@H](N)CC(C)C)[C@@H](C)CC)[C@@H](C)CC)C(=O)N[C@H](C(=O)N[C@@H](CCCCN)C(=O)N[C@@H](CCCCN)C(=O)N[C@@H](CC(C)C)C(=O)N[C@@H](CC(C)C)C(=O)N[C@@H](CCC(=O)O)C(=O)N[C@@H](CO)C(N)=O)[C@@H](C)CC | MDA-MB-231 | resazurin | 24 h | > 32 |
| O=C(Nc1cc(F)cc(C(F)(F)F)c1)c1cc(Cl)ccc1O | A549 |  |  | 1.97 |
| C=C1C(=O)O[C@H]2[C@H]1CCC(COC(=O)c1ccc(C(F)(F)F)cc1)=C1CC[C@@](C)(O)[C@@H]12 | MV4-11 | cell viability, alamarBlue | 24 h | 1 ± 0.1 |

| SMILES | cell line | test | conditions | CC50 [µM] |
| --- | --- | --- | --- | --- |
| OCCN1CCN(CCC=C2c3ccccc3Sc3ccc(C(F)(F)F)cc32)CC1 | human cells |  | concentration not given, 2 (unit not given) | 16.9 |
| CN(C(=O)C(Cc1ccccc1)NC(=O)CN1C(=O)NC2(CCCCC2)C1=O)c1ccc(F)cc1 (stereo not shown) | TZM-GFP | XTT | 72 h | > 50 |
| O=C(O)C(F)(F)C(F)(F)C(F)(F)C(F)(F)C(F)(F)C(F)(F)C(F)(F)F | BeWo cells |  | 24 h | 673 ± 58.2 |
| CC(C)[C@H](NC(=O)c1cc(Cl)ccc1O)C(=O)Nc1cc(F)cc(C(F)(F)F)c1 | A549 |  |  | 10.1 |
| CC[C@H](C)[C@H](NC(=O)[C@H](CCCCN)NC(=O)[C@H](CCCCN)NC(=O)[C@H](Cc1ccc(O)cc1)NC(=O)[C@H](CC(C)C)NC(=O)[C@@H]1CCCN1C(=O)[C@H](C)N)C(=O)N[C@H](C(=O)N[C@@H](CCCCN)C(=O)N[C@@H](CCCCN)C(=O)N[C@@H](CC(C)C)C(=O)N[C@@H](CC(C)C)C(=O)N[C@@H](CCC(=O)O)C(=O)N[C@@H](CO)C(N)=O)[C@@H](C)CC | MDA-MB-231 | resazurin | 24 h | > 32 |
| CN(C)CCOc1ccc(/C(=C(/CCCl)c2ccccc2)c2ccccc2)cc1 | human cells |  | concentration not given, 2 (unit not given) | 17.1 |
| CC[C@H](C)[C@@H]1NC(=O)[C@H](CO)NC(=O)[C@H](CCC(=O)O)NC(=O)[C@H](CC(C)C)NC(=O)[C@H](CC(C)C)NC(=O)[C@H](CCCCN)NC(=O)[C@H](CCCCN)NC(=O)[C@H]([C@@H](C)CC)NC(=O)[C@H]([C@@H](C)CC)NC(=O)[C@H](CCCCN)NC(=O)[C@H](CCCCN)NC(=O)[C@H](Cc2ccc(O)cc2)NC(=O)[C@H](CC(C)C)NC(=O)[C@@H]2CCCN2C(=O)CNC(=O)CNC(=O)[C@@H](N)CSSC[C@@H](C(N)=O)NC(=O)CNC(=O)CNC(=O)[C@H]([C@@H](C)O)NC(=O)[C@H](CC(C)C)NC(=O)[C@H](CCC(N)=O)NC(=O)[C@H](C)NC(=O)[C@H](Cc2c[nH]c3ccccc23)NC(=O)[C@H](Cc2ccc(O)cc2)NC(=O)[C@H](Cc2c[nH]cn2)NC(=O)[C@H](CCC(=O)O)NC(=O)[C@H](Cc2ccccc2)NC(=O)[C@H]([C@@H](C)O)NC(=O)[C@H](CC(C)C)NC(=O)CNC(=O)CNC(=O)[C@H](CO)NC(=O)CNC(=O)CNC(=O)[C@H](CO)NC(=O)CNC(=O)CNC(=O)[C@H](CCCCN)NC(=O)[C@H](CCCCN)NC(=O)[C@H]([C@@H](C)CC)NC1=O | K562 | resazurin | 24 h | 5.1 ± 0.2 |
| CCN(CCO)CCCC(C)Nc1ccnc2cc(Cl)ccc12 (stereo not shown) | Vero E6, HeLa, HEK293T, Huh7.5 | nuclei count | 16 h, mean of four cell lines | > 50 |
| CN1CCCC(n2nc(Cc3ccc(Cl)cc3)c3ccccc3c2=O)CC1 (stereo not shown) | human cells |  | concentration not given, 2 (unit not given) | > 20 |
| C[C@H](NC(=O)c1cc(Cl)ccc1O)C(=O)Nc1ccc([N+](=O)[O-])cc1Cl | A549 |  |  | > 10 |
| C[C@H](NP(=O)(OCCOCn1cnc2c(=O)[nH]c(N)nc21)Oc1ccccc1)C(=O)OCc1ccccc1 (stereo partly shown) | MT4 | cell growth or viability |  | > 150 |
| CN(C)[C@@H](CCOc1cccc2ccccc12)c1ccccc1 | human cells |  | concentration not given, 2 days | 18.1 |
| O=C(O)COc1c2c(c(OCC(=O)O)c3c1C1CC3c3cc4c(cc31)C1CC4c3ccccc31)C1CC2c2cc3c(cc21)C1CC3c2ccccc21 | Caco-2 | CellTiter-Glo | 2 days, highest concentration 300 µM | 117 |
| COc1cc2ncnc(Nc3ccc(F)c(Cl)c3)c2cc1OCCCN1CCOCC1 | human cells |  | concentration not given, 2 (unit not given) | > 20 |
| CN(C)CCCN1c2ccccc2Sc2ccc(Cl)cc21 | HepG2 | cytotoxicity | 48 and 72 h | 10 to 50 |

Repeated from above:
| SMILES | cell line | test | conditions | CC50 [µM] |
| --- | --- | --- | --- | --- |
| CN(C(=O)[C@H](Cc1ccccc1)NC(=O)Cc1ccc2ccccc2c1)c1ccc(Cl)cc1 | TZM-GFP | XTT | 72 h | < 50 |
| C[C@H](NC(=O)c1cc(Cl)ccc1O)C(=O)Nc1ccc([N+](=O)[O-])cc1Cl | A549 |  |  | > 10 |
| O=C(O)C(F)(F)C(F)(F)C(F)(F)C(F)(F)C(F)(F)C(F)(F)C(F)(F)F | BeWo cells |  | 24 h | 673 ± 58.2 |
| O=C(Nc1cc(F)cc(C(F)(F)F)c1)c1cc(Cl)ccc1O | A549 |  |  | 1.97 |
